Measured values pooled from the literature.
Parts stem from different laboratories: compare values within a part only. “And” joins repeats or separate records; there may be more than shown.
Sequence of UniProt Q5XXA6 (whole entry, unmodified, looked up): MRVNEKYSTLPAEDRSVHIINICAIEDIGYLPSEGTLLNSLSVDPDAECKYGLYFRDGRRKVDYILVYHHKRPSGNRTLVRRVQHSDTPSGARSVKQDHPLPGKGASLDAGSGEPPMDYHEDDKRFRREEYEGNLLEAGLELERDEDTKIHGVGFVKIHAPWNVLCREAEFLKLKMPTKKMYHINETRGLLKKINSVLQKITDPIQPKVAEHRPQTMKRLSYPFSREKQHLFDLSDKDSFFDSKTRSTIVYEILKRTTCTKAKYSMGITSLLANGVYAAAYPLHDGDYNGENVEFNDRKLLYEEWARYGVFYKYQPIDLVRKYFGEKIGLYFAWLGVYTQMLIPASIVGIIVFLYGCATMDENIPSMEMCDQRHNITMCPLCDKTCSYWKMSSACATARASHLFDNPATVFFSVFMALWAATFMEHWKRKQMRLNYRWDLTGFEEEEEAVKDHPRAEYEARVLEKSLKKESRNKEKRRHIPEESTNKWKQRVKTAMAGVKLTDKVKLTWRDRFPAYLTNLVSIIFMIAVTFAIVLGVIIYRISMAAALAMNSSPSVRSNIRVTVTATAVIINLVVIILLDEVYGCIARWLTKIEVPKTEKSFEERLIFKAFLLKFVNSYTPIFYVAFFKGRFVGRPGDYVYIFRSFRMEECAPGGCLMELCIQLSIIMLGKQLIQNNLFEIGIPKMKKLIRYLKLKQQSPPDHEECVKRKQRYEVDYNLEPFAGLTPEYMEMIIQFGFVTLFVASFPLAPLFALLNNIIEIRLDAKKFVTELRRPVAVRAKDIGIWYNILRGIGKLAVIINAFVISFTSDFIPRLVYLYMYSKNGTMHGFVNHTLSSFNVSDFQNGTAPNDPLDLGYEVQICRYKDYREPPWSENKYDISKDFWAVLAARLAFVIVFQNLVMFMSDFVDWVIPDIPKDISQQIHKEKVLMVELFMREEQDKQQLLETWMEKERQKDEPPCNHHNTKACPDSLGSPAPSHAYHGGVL
Sequence of UniProt P08581 (whole entry, looked up): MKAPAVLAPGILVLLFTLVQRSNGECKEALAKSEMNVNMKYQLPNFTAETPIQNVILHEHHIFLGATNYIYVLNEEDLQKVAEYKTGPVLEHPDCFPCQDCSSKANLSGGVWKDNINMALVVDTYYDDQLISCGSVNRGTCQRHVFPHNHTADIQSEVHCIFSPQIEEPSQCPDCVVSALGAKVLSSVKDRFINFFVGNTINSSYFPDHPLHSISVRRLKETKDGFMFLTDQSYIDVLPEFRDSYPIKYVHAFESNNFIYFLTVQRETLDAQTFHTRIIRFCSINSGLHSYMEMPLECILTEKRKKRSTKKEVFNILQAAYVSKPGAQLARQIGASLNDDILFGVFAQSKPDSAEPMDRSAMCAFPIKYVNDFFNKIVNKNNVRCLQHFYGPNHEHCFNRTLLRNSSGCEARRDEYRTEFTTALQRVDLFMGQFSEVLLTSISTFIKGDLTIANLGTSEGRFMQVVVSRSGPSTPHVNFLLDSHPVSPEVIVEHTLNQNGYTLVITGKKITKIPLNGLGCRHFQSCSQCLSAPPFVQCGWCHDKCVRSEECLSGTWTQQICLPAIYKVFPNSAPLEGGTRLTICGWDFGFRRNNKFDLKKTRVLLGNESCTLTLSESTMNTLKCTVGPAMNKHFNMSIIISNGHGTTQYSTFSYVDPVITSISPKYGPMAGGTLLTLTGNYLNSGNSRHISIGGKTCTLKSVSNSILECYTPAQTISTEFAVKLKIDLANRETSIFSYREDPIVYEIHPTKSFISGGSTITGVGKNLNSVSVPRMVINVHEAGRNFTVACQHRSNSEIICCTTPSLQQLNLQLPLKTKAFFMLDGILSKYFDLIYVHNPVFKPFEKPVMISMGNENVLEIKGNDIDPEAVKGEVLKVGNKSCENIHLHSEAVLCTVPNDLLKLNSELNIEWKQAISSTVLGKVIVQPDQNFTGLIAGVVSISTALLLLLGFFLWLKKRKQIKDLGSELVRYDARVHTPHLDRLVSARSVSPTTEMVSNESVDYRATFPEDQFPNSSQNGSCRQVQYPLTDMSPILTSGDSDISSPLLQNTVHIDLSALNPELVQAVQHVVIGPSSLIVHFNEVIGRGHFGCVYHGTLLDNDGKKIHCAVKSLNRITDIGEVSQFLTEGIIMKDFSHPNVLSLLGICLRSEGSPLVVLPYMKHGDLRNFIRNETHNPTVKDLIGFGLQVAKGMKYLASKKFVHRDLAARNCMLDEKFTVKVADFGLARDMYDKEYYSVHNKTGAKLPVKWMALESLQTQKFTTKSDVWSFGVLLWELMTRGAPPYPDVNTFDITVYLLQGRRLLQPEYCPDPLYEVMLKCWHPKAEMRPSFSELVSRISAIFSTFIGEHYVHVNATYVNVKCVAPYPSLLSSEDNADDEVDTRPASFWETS
Sequence of UniProt O00506 (whole entry, looked up): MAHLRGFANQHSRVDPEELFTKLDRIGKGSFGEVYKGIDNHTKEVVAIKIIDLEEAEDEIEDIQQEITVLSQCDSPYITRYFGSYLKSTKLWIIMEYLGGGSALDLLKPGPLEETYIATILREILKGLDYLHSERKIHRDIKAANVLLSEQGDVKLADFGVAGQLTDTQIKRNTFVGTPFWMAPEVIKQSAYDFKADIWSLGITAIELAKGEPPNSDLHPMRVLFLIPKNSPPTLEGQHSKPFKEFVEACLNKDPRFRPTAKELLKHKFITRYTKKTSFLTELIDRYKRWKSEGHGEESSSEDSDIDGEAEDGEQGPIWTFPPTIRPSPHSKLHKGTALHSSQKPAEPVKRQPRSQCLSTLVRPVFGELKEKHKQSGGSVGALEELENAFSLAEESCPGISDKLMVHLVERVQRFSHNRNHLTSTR
Sequence of UniProt P42336 (whole entry, unmodified, looked up): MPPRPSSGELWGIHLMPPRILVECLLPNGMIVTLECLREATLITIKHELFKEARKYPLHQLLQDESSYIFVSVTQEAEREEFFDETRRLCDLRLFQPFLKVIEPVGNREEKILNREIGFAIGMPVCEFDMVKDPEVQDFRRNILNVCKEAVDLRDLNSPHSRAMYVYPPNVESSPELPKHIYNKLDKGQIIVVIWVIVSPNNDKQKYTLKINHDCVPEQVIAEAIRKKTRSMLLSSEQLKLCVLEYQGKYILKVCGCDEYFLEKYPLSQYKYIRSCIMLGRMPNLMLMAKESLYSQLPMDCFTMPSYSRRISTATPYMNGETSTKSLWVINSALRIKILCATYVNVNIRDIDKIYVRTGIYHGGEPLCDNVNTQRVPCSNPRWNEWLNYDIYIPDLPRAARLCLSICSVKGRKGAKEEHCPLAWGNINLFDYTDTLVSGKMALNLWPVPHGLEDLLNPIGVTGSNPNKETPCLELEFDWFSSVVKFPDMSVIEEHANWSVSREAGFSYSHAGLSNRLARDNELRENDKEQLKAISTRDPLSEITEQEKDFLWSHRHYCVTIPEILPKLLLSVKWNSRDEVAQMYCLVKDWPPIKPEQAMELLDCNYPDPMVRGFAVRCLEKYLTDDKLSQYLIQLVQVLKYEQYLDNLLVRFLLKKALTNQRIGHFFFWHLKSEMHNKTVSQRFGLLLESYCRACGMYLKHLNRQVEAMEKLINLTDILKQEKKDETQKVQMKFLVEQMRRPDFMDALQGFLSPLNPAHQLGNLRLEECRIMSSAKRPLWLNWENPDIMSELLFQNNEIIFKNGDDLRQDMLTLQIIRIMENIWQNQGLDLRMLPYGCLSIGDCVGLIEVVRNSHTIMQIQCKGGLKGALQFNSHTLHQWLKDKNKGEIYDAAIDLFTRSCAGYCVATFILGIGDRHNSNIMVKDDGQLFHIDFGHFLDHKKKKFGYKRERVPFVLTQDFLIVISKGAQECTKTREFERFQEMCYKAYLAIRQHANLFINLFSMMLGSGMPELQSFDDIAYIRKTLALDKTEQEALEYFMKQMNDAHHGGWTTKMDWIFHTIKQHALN

Set 1
Target: Platelet-derived growth factor receptor alpha (PDGFRA, Homo sapiens, UniProt P16234)
Sequence of UniProt P16234 (whole entry, looked up): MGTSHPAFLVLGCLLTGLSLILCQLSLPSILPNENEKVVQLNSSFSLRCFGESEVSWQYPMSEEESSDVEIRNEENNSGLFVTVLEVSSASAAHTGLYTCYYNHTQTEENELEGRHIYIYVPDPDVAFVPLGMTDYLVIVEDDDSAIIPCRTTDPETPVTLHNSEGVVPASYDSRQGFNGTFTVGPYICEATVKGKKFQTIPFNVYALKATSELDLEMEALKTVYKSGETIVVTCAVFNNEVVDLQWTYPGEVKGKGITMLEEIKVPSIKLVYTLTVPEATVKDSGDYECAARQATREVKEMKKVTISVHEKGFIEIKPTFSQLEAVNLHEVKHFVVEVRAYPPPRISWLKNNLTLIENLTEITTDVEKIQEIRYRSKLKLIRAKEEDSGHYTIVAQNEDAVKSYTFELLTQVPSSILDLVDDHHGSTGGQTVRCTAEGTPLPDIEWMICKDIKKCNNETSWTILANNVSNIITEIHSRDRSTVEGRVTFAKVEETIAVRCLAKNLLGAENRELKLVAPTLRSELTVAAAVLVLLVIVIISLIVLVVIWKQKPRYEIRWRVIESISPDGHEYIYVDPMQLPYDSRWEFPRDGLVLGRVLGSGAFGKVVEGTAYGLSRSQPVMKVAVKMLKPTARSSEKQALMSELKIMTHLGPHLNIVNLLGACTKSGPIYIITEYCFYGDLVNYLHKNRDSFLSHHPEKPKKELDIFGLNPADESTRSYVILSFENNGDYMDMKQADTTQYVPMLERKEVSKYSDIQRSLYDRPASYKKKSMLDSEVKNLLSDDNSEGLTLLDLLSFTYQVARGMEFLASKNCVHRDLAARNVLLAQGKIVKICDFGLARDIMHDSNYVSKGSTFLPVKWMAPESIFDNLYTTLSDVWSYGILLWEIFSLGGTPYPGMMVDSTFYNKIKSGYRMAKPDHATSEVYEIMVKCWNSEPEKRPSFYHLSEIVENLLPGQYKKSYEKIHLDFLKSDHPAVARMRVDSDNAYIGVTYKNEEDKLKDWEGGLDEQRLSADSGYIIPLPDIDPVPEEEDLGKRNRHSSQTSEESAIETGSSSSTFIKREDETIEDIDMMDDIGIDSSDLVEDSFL
Effect on: enzyme activity
Action: inhibitor
Tested at: 0.5 µM
Baseline: control
For `CCCC(=O)Oc1ccc2[nH]c(C(=O)c3cc4ccccc4[nH]3)cc2c1`, the remaining activity was 96.6%.
`CC(=O)c1ccc(N2CCOCC2)cc1O` has a remaining activity of 94.7%.
The remaining activity of `Cc1cc(Nc2nc(-c3ccccc3)nc3ccccc23)n[nH]1` is reported as 81.6%.
`Cc1cncc2cccc(S(=O)(=O)N3CCCN(C(=O)CN)C[C@@H]3C)c12` gave a remaining activity of 93.5%.
`CC#CC(=O)Nc1cc2c(Nc3ccc(F)c(Cl)c3)ncnc2cn1` gave a remaining activity of 94.9%.
The remaining activity of `N#CC(=C(N)Sc1ccc(N)cc1)c1ccccc1C(F)(F)F` is reported as 99.5%.
The remaining activity of `Nc1ncnc2c1cnn2-c1ccccc1` is reported as 103%.
For `CC(C)(C)n1nc(Cc2cccc3ccccc23)c2c(N)ncnc21`, the remaining activity was 94.7%.
For `COc1cc(Nc2c(C#N)cnc3cc(OCCCN4CCN(C)CC4)c(OC)cc23)c(Cl)cc1Cl`, the remaining activity was 86.9%.

Set 2
Host: mouse
Sample: microsomes or S9
Tested at: 2 µM
Time: 0.5 h
With `CC(=O)c1c(NN2CCOCC2)[nH]c2c(Cl)cc([N+](=O)[O-])cc2c1=O` the remaining compound was 23.4%.
`COc1ccc(/C=N/n2cnnc2)cc1Br` has a remaining compound of 34.2%.
`Cc1ccc(S(=O)(=O)Nc2ccc3nc(N4CCN(c5ccccc5)CC4)cc(C(=O)O)c3c2)cc1` has a remaining compound of 63.4%.
`Clc1nc(Cl)n(C23CC4CC(CC(C4)C2)C3)n1` has a remaining compound of 50.7%.
`CCOC(=O)C1=C(NC(=O)CSc2nnc(-c3cc(C)on3)o2)SC2CCCCC12` (centres unmarked) gave a remaining compound of 86.2%.
`COc1cc(=O)n(C)cc1C(=O)N1CCN(c2ccc(C(F)(F)F)cn2)CC1` has a remaining compound of 96.8%.
`Oc1ccc([C@H]2Oc3cc(O)cc(O)c3C[C@H]2O)cc1` gave a remaining compound of 83.8%.

Set 3
Compound: CNCc1ccccc1-c1csc([C@@H](C)Nc2nc(C)nc3cc(OC)c(OC)cc23)c1
Effect on: cell-free assay
Technique: competition with immobilised ligand
Tested at: 1 µM
For NEK1 (Homo sapiens, UniProt Q96PY6): remaining binding read 91%.
For MELK (Homo sapiens, UniProt Q14680): remaining binding read 53%.
For STK25 (Homo sapiens, UniProt O00506): remaining binding read 89%.
BLK (Homo sapiens, UniProt P51451) — remaining binding: 91%.
PRKCH (Homo sapiens, UniProt P24723) — remaining binding: 100%.
For MAP2K4 (Homo sapiens, UniProt P45985): remaining binding read 86%.
ACVR1 (Homo sapiens, UniProt Q04771) — remaining binding: 100%.
For PIK3CA (Homo sapiens, UniProt P42336, E542K): remaining binding read 80%.
The remaining binding was 90% (SIK3 (Homo sapiens, UniProt Q9Y2K2)).
It gave 95% for remaining binding (MET (Homo sapiens, UniProt P08581)).
FGFR2 (Homo sapiens, UniProt P21802) — remaining binding: 85%.
MARK1 (Homo sapiens, UniProt Q9P0L2) — remaining binding: 100%.
It gave 80% for remaining binding (MAP2K3 (Homo sapiens, UniProt P46734)).
It gave 99% for remaining binding (GRK1 (Homo sapiens, UniProt Q15835)).
For Tyrosine-protein kinase ABL1, phosphorylated (ABL1, Homo sapiens, UniProt P00519, T315I): remaining binding read 83%.

Other studies, line by line
The normalized current of `CCc1c(C)nc(SCC(=O)Nc2nc(-c3ccc(OC)cc3)cs2)[nH]c1=O` is reported as 0.56 and 0.584 and 0.628 and 0.603 and 0.622 (Anoctamin-1 (ANO1, Homo sapiens, UniProt Q5XXA6, del476-501); ion current, patch clamp; 10 µM; baseline: before drug).

For quick reference, copied from above (set 3):
It gave 80% for remaining binding (MAP2K3 (Homo sapiens, UniProt P46734)).
The remaining binding was 90% (SIK3 (Homo sapiens, UniProt Q9Y2K2)).
BLK (Homo sapiens, UniProt P51451) — remaining binding: 91%.
For Tyrosine-protein kinase ABL1, phosphorylated (ABL1, Homo sapiens, UniProt P00519, T315I): remaining binding read 83%.
